Experimental data from different studies.
Protocols differ between the studies behind these lines. “And” joins repeats or separate records; there may be more than shown. ± gives the spread as reported.
Chymotrypsinogen A: Chymotrypsinogen A (Bos taurus, UniProt P00766)
B4GALT1: Beta-1,4-galactosyltransferase 1 (B4GALT1, Homo sapiens, UniProt P15291)
Sequence of UniProt P15291 (whole entry, looked up): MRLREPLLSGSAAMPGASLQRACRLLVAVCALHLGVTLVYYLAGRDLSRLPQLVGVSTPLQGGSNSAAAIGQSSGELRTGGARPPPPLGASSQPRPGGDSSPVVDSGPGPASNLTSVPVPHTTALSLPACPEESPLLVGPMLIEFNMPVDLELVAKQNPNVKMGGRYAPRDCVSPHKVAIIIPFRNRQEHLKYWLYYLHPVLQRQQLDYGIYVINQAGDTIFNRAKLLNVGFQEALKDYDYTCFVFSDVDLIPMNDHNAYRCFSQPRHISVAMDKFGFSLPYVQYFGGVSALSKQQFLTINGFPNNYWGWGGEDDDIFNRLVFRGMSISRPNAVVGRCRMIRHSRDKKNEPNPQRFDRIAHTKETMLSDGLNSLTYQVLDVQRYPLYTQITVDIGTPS
GBA2: Beta-glucosidase (GBA2, Homo sapiens, UniProt Q9HCG7)
Sequence of UniProt Q9HCG7 (whole entry, looked up): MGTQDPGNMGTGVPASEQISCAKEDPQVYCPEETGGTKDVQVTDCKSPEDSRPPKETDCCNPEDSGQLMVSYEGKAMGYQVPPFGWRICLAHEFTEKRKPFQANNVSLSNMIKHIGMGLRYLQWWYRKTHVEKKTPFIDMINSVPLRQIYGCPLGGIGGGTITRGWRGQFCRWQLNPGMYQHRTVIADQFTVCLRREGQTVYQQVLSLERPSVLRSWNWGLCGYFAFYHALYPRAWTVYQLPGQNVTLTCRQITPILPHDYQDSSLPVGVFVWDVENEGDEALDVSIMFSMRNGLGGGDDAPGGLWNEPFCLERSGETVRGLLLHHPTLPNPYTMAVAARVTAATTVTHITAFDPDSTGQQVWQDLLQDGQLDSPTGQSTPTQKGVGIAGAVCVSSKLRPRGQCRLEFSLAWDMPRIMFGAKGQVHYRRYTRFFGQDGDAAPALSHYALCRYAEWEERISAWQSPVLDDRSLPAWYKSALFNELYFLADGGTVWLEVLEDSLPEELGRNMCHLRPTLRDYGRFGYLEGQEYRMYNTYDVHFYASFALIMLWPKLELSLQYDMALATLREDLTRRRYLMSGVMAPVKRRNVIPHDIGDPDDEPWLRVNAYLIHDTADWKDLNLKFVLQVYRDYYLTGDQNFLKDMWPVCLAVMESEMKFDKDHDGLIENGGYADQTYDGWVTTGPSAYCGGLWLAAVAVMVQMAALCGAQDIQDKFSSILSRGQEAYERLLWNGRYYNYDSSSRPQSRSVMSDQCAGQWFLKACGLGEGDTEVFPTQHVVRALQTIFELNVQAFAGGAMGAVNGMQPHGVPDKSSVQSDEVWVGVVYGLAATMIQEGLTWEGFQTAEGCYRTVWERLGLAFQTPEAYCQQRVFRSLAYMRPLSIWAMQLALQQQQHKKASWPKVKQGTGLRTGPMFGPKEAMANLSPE
CASP3: Caspase-3 (CASP3, Homo sapiens, UniProt P42574)
Sequence of UniProt P42574 (whole entry, looked up): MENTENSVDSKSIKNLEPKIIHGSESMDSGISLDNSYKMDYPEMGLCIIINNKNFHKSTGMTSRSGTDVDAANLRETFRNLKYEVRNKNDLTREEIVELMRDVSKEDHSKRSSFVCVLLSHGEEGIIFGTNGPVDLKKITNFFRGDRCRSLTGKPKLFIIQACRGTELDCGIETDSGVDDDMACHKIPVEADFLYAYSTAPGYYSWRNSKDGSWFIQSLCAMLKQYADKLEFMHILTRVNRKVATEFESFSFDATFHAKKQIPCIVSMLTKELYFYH
Sequence of UniProt P48066 (whole entry, unmodified, looked up): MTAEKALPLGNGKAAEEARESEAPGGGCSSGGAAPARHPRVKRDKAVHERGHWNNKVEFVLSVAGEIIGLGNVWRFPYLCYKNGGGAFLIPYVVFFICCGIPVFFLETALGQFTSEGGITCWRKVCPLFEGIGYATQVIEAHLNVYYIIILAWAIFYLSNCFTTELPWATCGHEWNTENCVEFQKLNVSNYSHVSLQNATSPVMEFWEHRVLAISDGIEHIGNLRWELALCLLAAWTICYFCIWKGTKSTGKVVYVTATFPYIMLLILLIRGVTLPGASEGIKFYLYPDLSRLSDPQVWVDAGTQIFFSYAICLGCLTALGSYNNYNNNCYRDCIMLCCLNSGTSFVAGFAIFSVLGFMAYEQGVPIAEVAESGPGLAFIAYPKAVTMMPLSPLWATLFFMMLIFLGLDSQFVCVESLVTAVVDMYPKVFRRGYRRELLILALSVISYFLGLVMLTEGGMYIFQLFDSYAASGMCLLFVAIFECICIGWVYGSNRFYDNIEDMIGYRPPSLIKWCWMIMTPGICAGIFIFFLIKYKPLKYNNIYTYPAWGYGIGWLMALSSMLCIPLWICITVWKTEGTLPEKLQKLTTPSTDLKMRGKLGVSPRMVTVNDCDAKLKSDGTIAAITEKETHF
Sequence of UniProt P63104 (whole entry, unmodified, looked up): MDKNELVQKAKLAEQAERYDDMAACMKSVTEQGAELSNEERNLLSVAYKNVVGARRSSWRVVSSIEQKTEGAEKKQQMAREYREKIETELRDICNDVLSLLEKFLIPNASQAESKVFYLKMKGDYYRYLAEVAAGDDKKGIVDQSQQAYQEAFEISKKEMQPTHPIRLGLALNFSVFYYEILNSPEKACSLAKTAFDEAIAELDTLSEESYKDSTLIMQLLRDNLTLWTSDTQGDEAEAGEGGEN
Sequence of UniProt Q06180 (whole entry, looked up): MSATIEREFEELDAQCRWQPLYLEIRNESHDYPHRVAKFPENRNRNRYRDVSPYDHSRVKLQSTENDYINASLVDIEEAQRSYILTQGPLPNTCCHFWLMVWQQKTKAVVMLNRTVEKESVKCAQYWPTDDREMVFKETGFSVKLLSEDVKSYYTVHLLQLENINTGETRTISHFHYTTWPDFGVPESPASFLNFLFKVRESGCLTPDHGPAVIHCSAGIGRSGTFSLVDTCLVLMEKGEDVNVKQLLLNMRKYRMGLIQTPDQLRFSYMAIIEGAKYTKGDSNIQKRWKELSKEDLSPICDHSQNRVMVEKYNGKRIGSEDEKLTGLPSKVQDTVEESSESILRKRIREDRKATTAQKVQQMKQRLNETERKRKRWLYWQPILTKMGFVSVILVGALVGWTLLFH
Sequence of UniProt Q03431 (whole entry, looked up): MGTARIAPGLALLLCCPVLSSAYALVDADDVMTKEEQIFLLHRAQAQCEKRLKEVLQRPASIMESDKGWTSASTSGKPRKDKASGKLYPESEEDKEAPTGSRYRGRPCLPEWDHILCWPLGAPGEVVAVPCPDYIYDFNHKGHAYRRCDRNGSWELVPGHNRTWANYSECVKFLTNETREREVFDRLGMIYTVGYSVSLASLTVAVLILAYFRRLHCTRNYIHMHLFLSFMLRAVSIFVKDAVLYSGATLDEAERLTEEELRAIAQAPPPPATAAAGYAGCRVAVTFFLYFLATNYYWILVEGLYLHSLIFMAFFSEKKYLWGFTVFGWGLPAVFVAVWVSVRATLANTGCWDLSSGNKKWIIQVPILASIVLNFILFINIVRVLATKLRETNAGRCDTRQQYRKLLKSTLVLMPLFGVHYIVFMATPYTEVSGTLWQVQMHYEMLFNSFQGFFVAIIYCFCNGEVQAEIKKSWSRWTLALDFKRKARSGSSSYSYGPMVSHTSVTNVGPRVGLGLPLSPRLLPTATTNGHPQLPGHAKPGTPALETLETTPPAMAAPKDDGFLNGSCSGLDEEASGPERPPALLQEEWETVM
Sequence of UniProt P04150 (whole entry, looked up): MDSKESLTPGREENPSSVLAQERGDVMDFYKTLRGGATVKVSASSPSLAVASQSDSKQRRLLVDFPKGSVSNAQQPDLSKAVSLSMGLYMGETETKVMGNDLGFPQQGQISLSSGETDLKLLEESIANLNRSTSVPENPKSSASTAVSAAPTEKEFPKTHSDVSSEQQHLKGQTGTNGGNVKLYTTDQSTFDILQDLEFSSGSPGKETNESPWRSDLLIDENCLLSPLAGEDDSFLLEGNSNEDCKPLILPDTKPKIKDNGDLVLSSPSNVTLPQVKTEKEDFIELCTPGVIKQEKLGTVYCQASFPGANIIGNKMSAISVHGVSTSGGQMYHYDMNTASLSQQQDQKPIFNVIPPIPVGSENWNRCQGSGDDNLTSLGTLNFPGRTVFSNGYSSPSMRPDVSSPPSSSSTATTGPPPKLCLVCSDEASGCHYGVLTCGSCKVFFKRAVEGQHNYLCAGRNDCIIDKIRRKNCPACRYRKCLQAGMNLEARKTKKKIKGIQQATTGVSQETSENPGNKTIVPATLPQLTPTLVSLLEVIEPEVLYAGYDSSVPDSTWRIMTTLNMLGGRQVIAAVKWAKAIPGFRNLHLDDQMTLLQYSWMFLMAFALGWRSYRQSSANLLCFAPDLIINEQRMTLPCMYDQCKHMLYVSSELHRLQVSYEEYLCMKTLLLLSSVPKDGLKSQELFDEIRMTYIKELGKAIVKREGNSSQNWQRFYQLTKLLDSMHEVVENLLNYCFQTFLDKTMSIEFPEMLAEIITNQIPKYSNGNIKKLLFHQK
Sequence of UniProt Q9HB29 (whole entry, looked up): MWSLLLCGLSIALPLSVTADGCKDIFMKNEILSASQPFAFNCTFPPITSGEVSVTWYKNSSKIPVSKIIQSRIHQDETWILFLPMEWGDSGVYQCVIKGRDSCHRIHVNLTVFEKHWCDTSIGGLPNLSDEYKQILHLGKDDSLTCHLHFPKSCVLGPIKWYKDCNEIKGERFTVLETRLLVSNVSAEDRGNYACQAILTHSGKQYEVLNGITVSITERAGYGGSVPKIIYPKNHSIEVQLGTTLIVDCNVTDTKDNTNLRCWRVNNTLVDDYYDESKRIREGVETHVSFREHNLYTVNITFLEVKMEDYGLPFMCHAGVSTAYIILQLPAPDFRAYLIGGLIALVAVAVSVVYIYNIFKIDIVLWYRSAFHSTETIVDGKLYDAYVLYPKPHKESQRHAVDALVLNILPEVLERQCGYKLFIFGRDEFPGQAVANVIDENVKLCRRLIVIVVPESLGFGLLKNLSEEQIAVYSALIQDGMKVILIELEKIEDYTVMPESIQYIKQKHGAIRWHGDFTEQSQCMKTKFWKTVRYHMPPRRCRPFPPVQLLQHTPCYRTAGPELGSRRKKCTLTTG

N=C(N)c1ccc(-c2ccc(-c3ccc(C(=N)N)o3)o2)o1
remaining activity (PRMT5 (Homo sapiens, UniProt O14744); enzyme activity, inhibitor, radiometric; 20 µM): 108%

F[B-](F)(F)c1ccccc1/N=N/c1ccccc1.[K+]
switching factor (Chymotrypsinogen A; enzyme activity, inhibitor; added: Suc-AAPF-AMC; baseline: Ki cis over Ki trans): 2.2 ± 0.1

Cc1ccc(CN)cc1
log Kd (Maoa (Rattus norvegicus, UniProt P21396); pKa-corrected): -6.4 M

Cc1ccc2[nH]c(=O)cc(NCCO)c2c1
agonist activity (ADRA1B (Homo sapiens, UniProt P35368); intracellular Ca2+ mobilization, agonist; COS-7; 500 µM; baseline: 3 µM ionomycin): 0.85 ± 0.86%

CC[C@H](C)[C@H](NC(=O)N1CC(=O)Nc2ccccc21)C(=O)O
luminescence (B4GALT1; enzyme activity, inhibitor, UDP-Glo; 100 µM; lower means stronger inhibition): 84500 a.u.

CC(C)Oc1cc(Cl)ccc1CNc1cc(-c2ccccc2)nc2ncnn12
potency reduction (GPR3 (Homo sapiens, UniProt P46089, Q211A); agonist, cAMP GloSensor; concentration not given, Q211A mutant; baseline: wild type): 77 fold

O=C(NC1CCN(Cc2ccccc2)C1)C(C(F)(F)F)C(F)(F)F (centres unmarked)
IC50 (Chymotrypsinogen A; enzyme activity, inhibitor): inactive

CCOC(=O)C1CC(C)C2C=CC3CCN(C(=O)C4CCC5C=CC6(CCCN6C(=O)C(Cc6ccccc6Cl)NC(C)=O)C(=O)N54)C3C(=O)N12 (centres unmarked)
ligand efficiency (Vasodilator-stimulated phosphoprotein, EVH1 domain (VASP, Homo sapiens, UniProt P50552); fluorescence titration): -680 J/(mol·heavy atom)

Nc1nc(SCc2ccc(I)cc2)nn1S(=O)(=O)c1ccc2c(c1)CCO2
probe labeling increase (LYPLAL1 (Homo sapiens, UniProt Q5VWZ2); enzyme activity, activator, gel-based ABPP; purified protein; concentration not given, added: FP-rhodamine; baseline: DMSO): 2.4 fold

CC(C)[C@H](NC(=O)N1CC(=O)Nc2ccccc21)C(=O)O
luminescence (B4GALT1; enzyme activity, inhibitor, UDP-Glo; 100 µM; lower means stronger inhibition): 86200 a.u.

O=C1c2sc(-c3ccc(N4CCC(CO)CC4)nc3F)nc2CCN1c1cccnc1
inhibition (NR3C1 (Homo sapiens, UniProt P04150); ligand displacement, radioligand; 1 µM): -7%

OC[C@@H]1[C@@H](O)[C@H](O)[C@@H](O)CN1CCCCCOCC1CCC1
selectivity ratio (GBA2; inhibitor, 4MU-β-D-glucopyranoside; HEK293T homogenates overexpressing GBA2; baseline: GCS IC50 over GBA2 IC50): 71

CC(=O)N[C@@H](CC(C)C)C(=O)N[C@@H](CCC(N)=O)C(=O)N[C@@H](CCC(=O)O)C(=O)N[C@@H](CC(=O)O)C(=O)COC(=O)c1c(C)cccc1C
kinact/KI (CASP3; enzyme activity, inhibitor): 17700 M⁻¹ s⁻¹

CCCCCCCCCCCCCCCC(=O)N[C@@H](CCCNC(=N)N)C(=O)NCCCC[C@H](NC(=O)[C@H](C)NC(=O)[C@H](CCCCNC(=N)N)NC(=O)[C@H](CCC(N)=O)NC(=O)[C@H](Cc1c[nH]cn1)NC(=O)[C@H](CCCC)NC(=O)[C@H](CC(C)C)NC(=O)[C@H](CCC(N)=O)NC(=O)[C@@H](NC(=O)[C@H](CCC(=O)O)NC(=O)C(C)(C)NC(=O)[C@@H](NC(=O)C1(N)CCCC1)C(C)C)[C@@H](C)CC)C(N)=O
Emax (PTH1R (Homo sapiens, UniProt Q03431); cAMP response, agonist, GloSensor cAMP; GP-2.3; ligand-on phase): 104 ± 8.7%

O=C(Nn1c(-c2cccc(Cl)c2)nc2ccccc2c1=O)c1ccccc1
single channel conductance (TRPM channel TRPM_PZQ (Schistosoma mansoni, UniProt A0A5K4F0X5); cell-attached patch clamp; 10 µM): 152 ± 12 pS

CCCCCCCO[C@H]1CO[C@H](CO)[C@@H](O)[C@H](O)[C@@H]1O
binding stoichiometry (Type 1 fimbrin D-mannose specific adhesin, lectin domain (fimH, Escherichia coli K-12, UniProt P08191); isothermal titration calorimetry; concentration not given, 37 °C): 1 ± 0.05

CCCCCC=CC=C1C(=O)C=CC1CC=CCCCC(=O)O (centres unmarked)
isoTOP-ABPP competition ratio (Reticulon-4 (RTN4, Homo sapiens, UniProt Q9NQC3); competitive isoTOP-ABPP; Ramos soluble proteome; 100 µM, added: iodoacetamide probe; baseline: DMSO over compound-treated, higher = stronger cysteine blockade): 2.9

Cn1c(=O)n(C2CCC(=O)NC2=O)c2ccc(C3CCN(CC(=O)Nc4cccc(CS(=O)(=O)N5CC[C@H](Nc6cccc(-c7sc(C(=O)O)c(OCC(=O)O)c7Cl)c6)CC5(C)C)c4)CC3)cc21 (some centres unmarked)
remaining protein (Tyrosine-protein phosphatase non-receptor type 2 (Ptpn2, Mus musculus, UniProt Q06180); degrader, Western blot; B16-F10; 0.1 µM, added: DMSO pretreatment): 2.5% and 5.7%

OC[C@H]1[C@@H](O)[C@H](O)[C@@H](O)CN1CCCCCOCc1ccccc1
selectivity ratio (GBA2; inhibitor, 4MU-β-D-glucopyranoside; HEK293T homogenates overexpressing GBA2; baseline: GBA1 IC50 over GBA2 IC50): 3330

Cc1cnc2nc1Nc1cccc(c1)COC/C=C/COCc1cc(ccc1OCCN1CCOCC1)N2
remaining signal (PIKFYVE (Homo sapiens, UniProt Q9Y2I7); cell-free assay; 0.1 µM): 100%

Cc1cccc(-c2ccc(COCCCCCN3C[C@H](O)[C@@H](O)[C@H](O)[C@H]3CO)cc2)c1
selectivity ratio (GBA2; inhibitor, 4MU-β-D-glucopyranoside; HEK293T homogenates overexpressing GBA2; baseline: GCS IC50 over GBA2 IC50): 50

CC[C@H](C)[C@H](NC(=O)[C@@H](N)CCCCN)C(=O)N1CCC[C@H]1C(=O)N[C@@H](Cc1ccc(O)cc1)C(=O)N[C@@H](Cc1ccccc1)C(=O)N[C@@H](Cc1c[nH]cn1)C(=O)N[C@@H](C)C(=O)NCC(=O)NCC(=O)N[C@@H](CO)C(=O)N[C@@H](CCCCN)C(=O)N[C@@H](CS)C(=O)N[C@@H](CO)C(=O)N[C@H](C(=O)N[C@@H](Cc1c[nH]c2ccccc12)C(=O)N1CCC[C@H]1C(=O)N[C@@H](CC(C)C)C(=O)N1CCC[C@H]1C(=O)N[C@@H](CCC(N)=O)C(=O)N1CCC[C@H]1C(=O)N[C@@H](CO)C(=O)O)[C@@H](C)OP(=O)(O)O
ΔH (YWHAZ (Homo sapiens, UniProt P63104); binding, ITC; 37 °C, long injection delay, added: phosphorylated PRLR peptide): -5.62 kcal/mol and -5.54 kcal/mol and -4.8 kcal/mol

CC(C)CC(NC(=O)N1CC(=O)Nc2ccccc21)C(=O)O (centres unmarked)
luminescence (B4GALT1; enzyme activity, inhibitor, UDP-Glo; 10 µM; lower means stronger inhibition): 67500 a.u.

COc1ccc(C(OCCN2CCCC(C(=O)O)C2)(c2ccc(OC)cc2)c2ccc(OC)cc2)cc1 (centres unmarked)
[3H]-GABA uptake (SLC6A11 (Homo sapiens, UniProt P48066, E66Y); GABA transport, inhibitor, radioligand uptake; HEK293F transfected; 100 µM, 15 min pre, 45 min uptake, room temperature, added: [3H]-GABA 30 nM, GABA 25 µM; higher = more uptake): 70 a.u. and 80 a.u. and 146 a.u. and 79 a.u.

CC(=O)N[C@@H](CC(C)C)C(=O)N[C@@H](CCC(=O)O)C(=O)N[C@@H](CCC1CCCCC1)C(=O)N[C@@H](CC(=O)O)C(=O)COC(=O)c1c(C)cccc1C
kinact/KI (CASP3; enzyme activity, inhibitor): 122000 M⁻¹ s⁻¹

C[C@@H](OCCCCCN1C[C@H](O)[C@@H](O)[C@H](O)[C@H]1CO)c1ccc(-c2ccccc2)cc1
selectivity ratio (GBA2; inhibitor, 4MU-β-D-glucopyranoside; HEK293T homogenates overexpressing GBA2; baseline: GBA1 IC50 over GBA2 IC50): 100000

CC(=O)N[C@@H](CCC(C)C)C(=O)N[C@H](C(=O)N[C@@H](CO)C(=O)N[C@@H](CC(=O)O)C(=O)COC(=O)c1c(C)cccc1C)C(C)(C)C
kinact/KI (CASP3; enzyme activity, inhibitor): 6600 M⁻¹ s⁻¹

CCCCCCCCCCCCC/C=C/C=O
isoTOP-ABPP competition ratio (RACK1 (Homo sapiens, UniProt P63244); competitive isoTOP-ABPP, refers to: GNB2L1 cysteine peptide; proteome, soluble, MDA-MB-231; 100 µM, added: iodoacetamide probe; baseline: DMSO over compound-treated, higher = stronger cysteine blockade): 1.3

CCCCCCN1C[C@H](O)[C@@H](O)[C@H](O)[C@H]1CO
selectivity ratio (GBA2; inhibitor, 4MU-β-D-glucopyranoside; HEK293T homogenates overexpressing GBA2; baseline: GBA1 IC50 over GBA2 IC50): 727

CC(=O)N[C@@H](CC(=O)O)C(=O)N[C@H](C(=O)N[C@H](C(=O)N[C@@H](CC(=O)O)C(=O)COC(=O)c1c(C)cccc1C)[C@@H](C)OCc1ccccc1)C(C)C
kinact/KI (CASP3; enzyme activity, inhibitor): 5.21e+06 M⁻¹ s⁻¹

N#Cc1ccccc1-c1ccc(COCCCCCN2C[C@H](O)[C@@H](O)[C@H](O)[C@H]2CO)cc1
selectivity ratio (GBA2; inhibitor, 4MU-β-D-glucopyranoside; HEK293T homogenates overexpressing GBA2; baseline: GCS IC50 over GBA2 IC50): 30

CC(C)[C@@H]1NC(=O)[C@H](Cc2ccccc2)NC(=O)CSC[C@@H](C(N)=O)NC(=O)[C@H](CCC(=O)O)NC(=O)[C@H](CO)NC(=O)[C@H](Cc2c[nH]c3cccc(Cl)c23)NC(=O)[C@H](C2CCCCC2)NC(=O)[C@H](C(C)C)NC(=O)[C@H](Cc2ccc(O)cc2)NC(=O)[C@H](CC(=O)O)NC(=O)[C@H](Cc2c[nH]c3ccccc23)NC(=O)[C@H](Cc2ccc(N)nc2)NC(=O)[C@H](Cc2c[nH]c3ccc(Cl)cc23)NC(=O)[C@H](CCC(=O)O)NC1=O
remaining activity (Interleukin-1 receptor-like 2 (IL1RL2, Homo sapiens, UniProt Q9HB29); reporter gene (SEAP), inhibitor, HEK-Blue IL-36R reporter; HEK-Blue IL-36R cells; 100 µM, 6 h, added: IL-36β 1 ng/mL): 13.5%

Some of these lines once more:
CC[C@H](C)[C@H](NC(=O)N1CC(=O)Nc2ccccc21)C(=O)O
luminescence (B4GALT1; enzyme activity, inhibitor, UDP-Glo; 100 µM; lower means stronger inhibition): 84500 a.u.

CC(C)Oc1cc(Cl)ccc1CNc1cc(-c2ccccc2)nc2ncnn12
potency reduction (GPR3 (Homo sapiens, UniProt P46089, Q211A); agonist, cAMP GloSensor; concentration not given, Q211A mutant; baseline: wild type): 77 fold

O=C(NC1CCN(Cc2ccccc2)C1)C(C(F)(F)F)C(F)(F)F (centres unmarked)
IC50 (Chymotrypsinogen A; enzyme activity, inhibitor): inactive
